Published values collected from several papers.
A part holds a random share of what one study measured.

Series 1
Target: RING finger protein unkempt homolog, zinc fingers 1-6, GST-SBP tag (UNK, Homo sapiens, UniProt Q9C0B0, residues 30-357)
Chain of UniProt Q9C0B0 (30-357, looked up): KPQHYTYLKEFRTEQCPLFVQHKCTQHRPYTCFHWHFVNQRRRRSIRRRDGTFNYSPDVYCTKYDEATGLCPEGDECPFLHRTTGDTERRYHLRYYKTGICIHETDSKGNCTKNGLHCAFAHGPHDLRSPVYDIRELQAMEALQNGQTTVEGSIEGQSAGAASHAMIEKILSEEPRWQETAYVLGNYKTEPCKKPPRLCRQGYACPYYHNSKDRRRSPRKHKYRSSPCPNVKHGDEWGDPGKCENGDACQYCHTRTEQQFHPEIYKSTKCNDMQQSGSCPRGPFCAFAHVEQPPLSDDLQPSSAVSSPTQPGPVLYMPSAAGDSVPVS
Method: RNA Bind-n-Seq
Form: RNA
Sample: in vitro
Concentration: not given
Notes: RNA with constant flanks, human and mouse sites, ends assumed
Baseline: input RNA pool
Direction: higher = stronger binding
Shared flanks, not repeated: GGGAGUUCUACAGUCCGACGAUC … CAACAGAGGAUUGAGCAUCA
| Sequence | bound/input enrichment [ratio] |
| --- | --- |
| ACCAACAAAGACAAGGCCGAACUAAUCCUGCCCAAUGGUCAAGAAGUAGACAUCCCGAUUUCCUACUUAACCUCAGUCUCAUCUUUGAUUGUGUGGCAUCCGGCCAACCCCGCUGAGAAA | 0.175 |
| UUUGUGGUAACUUGAGAUUCAAGACAAGAGCUGUUAUGCUGUUUCCUAGCUAGGAGCAGGCUUGUGGCAGCCUGAUUCGGGGCUGACCUUUCAAACCCAGAGGGUUGCUGGUCCUGCACA | 0.0624 |
| UUCUUCAAACCUGGUAGUCAGUUUUUGUAUUCAACUUUUGGCUAUACCCUACUGGCAGCCAUAGUAGAGAGAGCUUCAGGAUGUAAAUAUUUGGACUAUAUGCAGAAAAUAUUCCAUGAC | 0.122 |
| UGGAUGUACACGUUCUCACGAGCUGCGAUUCUCCUUAGCAUUGUAUACUUCUAUUCUUCUUUUAGUCGGUUUAUCAUGGUAAUGGGAGCCAUGCUACUGGUUUAUUUACACCAAGCUGGA | 1.55 |
| CUCCAGAAAAUGAUAGGAAACAUAUUUACCCAGCAGCCAAGUUACUAUACUGACCUGGAUGAAACCAUUCCCACCAUACUUCAGGUCUUCAGCAAUAUCCUCCAGCACUGUGGUUUGCAA | 0.852 |
| UAAAAAGUGUUUUGAAUUGUGUCUUAAUCUCUCCAUAUUCAACUAUUCUUCAUUUACAACAAUAGUGACACCAGUAAUUAUGAGAGGCUGUCAUAUAUCAAAGCAGCUCAGGUGGGAUCA | 0.695 |
| AAAACAUGUAAAUCCAGUCUACUCUAUUGUCUUGUUUUGAUUAUACCAUCAGACACAUUGUAGUUGCUAGACGUAGUAUGAAGGCACAGGUGAUGGGGCAGUCCUAAAUUUCUGACUCUU | 0.585 |
| CUGUGUAAUGAAAAACUAUUAAAAAAGGCUCGUAUACAUCCAUUUCAUAUUUUGAUCGCAUUAGAAACUUACAAGACAGGUCAUGGUCUCAGAGGGAAACUGAAGUGGCGCCCUGAUGAA | 1.31 |
| GCCGCUGGGGAUGCCAAGUCCAUCAUCACAUGCAGGGUGUCCCUUCUGGACGGUACAGAUGUCAGUGUGGACUUGCCGAAAAAAGCCAAAGGACAGGAGCUGUUUGACCAAAUCAUGUAU | 0.142 |
| GUAUUAAGUUCUUCUCCUGCUGAUAAAUUGGAUUCUCGAUUUAGGAAGGGAAAUUUUGGCACUAGAGAUGCUGAAACAGAUGGACCUGAGAAAGGAGAUCAAAAAGGCAAGGCUUCUCCA | 0.272 |
| AAAUACAUCCACAUCUUGGCGUACGCAGCAAGCGUGGUUGAGACCUGGAAGAAGAACAAGCGAGUGAGCAUCAAUAAAGAUGAGCUGAAGUCAACGUCAAAAGCUGUCGAAACCGUUCAC | 0.0833 |

Series 2
Target: RNA binding protein fox-1 homolog 2, RRM domain, GST-SBP tag (RBFOX2, Homo sapiens, UniProt O43251-10, residues 100-194)
Method: RNA Bind-n-Seq
Form: RNA
Sample: in vitro
Concentration: 365 nM
Notes: natural RNA segment, single round, ends assumed
Baseline: no-protein control
Direction: higher = stronger binding
Shared flanks, not repeated: GGGAGUUCUACAGUCCGACGAUC … UGGAAUUCUCGGGUGCCAA
Construct (chain): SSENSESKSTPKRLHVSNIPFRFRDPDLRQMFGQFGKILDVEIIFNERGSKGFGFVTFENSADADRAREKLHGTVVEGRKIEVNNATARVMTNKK
| Sequence | RBNS enrichment (R) |
| --- | --- |
| CUCAGUACUGUAUUUGCUCAGUGCAUCAGGAAUGGGUGUAUGGGUGUGUGUGGGUGGGUGUGAGUGUGGGUGUGUACGUACCAAUAAACAACCUGGUUUUAAGACAAUGU | 1.45 |
| UAAAAAAGAAAAAGAAAAAUACAUCAGGGAACCACUCCAUGGGGUAAAUGAUGACUACUGUUUGGGGUUUUGAGACCCCGCUGUGUAAAUGUGUGUCUUUCACAGGAGUG | 0.55 |
| GGAGAUCUGAGGUCACUGCUGUGAGCUGGGAGAACUGCUGUGUACCUCUUGCUGCCAGCACCCAACAGCCUUGCCGUGGGGACCUUGGAAACCUGGCUUUGCUCUGGACA | 0.291 |
| GUUUGUGGCUGGGGGCAGGAGGGCCCUACCUGAUUGGUGCAACCCUUACCCCUUAGCCUCCCUGAAAAUGUUUUUCUGCCAGGGAGCUUGAAAGUUUUCAGAACCUCUUC | 0.303 |
| CCCAGAAGAGUGACUCAAGGACGGGGUCUCUCUAGCAACUGAGAAGACUAUGAUGAGUCCCCGAAAGGUCCUGCUGUGCCCUGAGCCUCCCUAGGUUUAGAAAAACAACU | 0.324 |
| UGCAUUUCUUUAACCAUAGCUGUAAUGUACCAUAUUAAAUUGUAGCCUUUUGCAUGCGGGUAUUAUAUAAUAAUGAAUGGGUGGCUCCUAGUAGCAUGCAACCCAUGACU | 23.5 |
| UGCCUGCUUGAAGGAACAGUGCUGUUCUGGAGCUGCUGUUCCAACAGACAGGGCCUAGCUUUCAUUUGACACACAGACUACAGCCAGAAGCCCAUGGAGCAGGGAUGUCA | 0.412 |
| AAAACACGGACCUUUUGGGUUAAAAGCUUUAACAUCUGUGAGGAAGAACUGGUCACAUGGGUUUGGAAUCUUUGAUUUCCCCUGUAUGAAUUGUACUGGCUGUUGACCAC | 0.408 |
| CAUAUCACACAUAUCUACACUAUUAUCUGAUAACACACUGGUAGUUUUUAAGACUAAGGCAGUUUAUAGAAUGAAGUAUAUCAAUAUUCUUUUGGUUUCCCAAAGCAAUA | 0.522 |
| UCUCUCUCUCUCUCUGUGUUUCCUCCAGCCCUUGUCUCGGAGACGGUGUUUUCCUCCCUUGCCCCAUUAUCUUUUCACCUCCCAGGUCUACCAUUUCAUGGUGGUCGUUG | 0.975 |

Mixed results
| Substance | target or system | test | test system | setting | scale | endpoint | value |
| --- | --- | --- | --- | --- | --- | --- | --- |
| GSPAKKLFTSTGL | Saccharomyces cerevisiae | binding, competitive growth deep sequencing | peptide, cyclin E1-Cln2 fusion strain | concentration not given, peptide library 1 | direction not given | growth enrichment score | 0.0361 |
| PhoQ, residues 284 288 289 292 302 303 TGYLSA | PhoP, residues 12 14 15 18 19 SMASL (Escherichia coli, UniProt P23836) | Sort-seq, refers to: YFP reporter | E. coli | PhoQ-PhoP variant library, added: 10 µM Mg2+ | baseline: high Mg2+ state, higher = stronger signaling | fold induction | 2.95 |
| SFEPRNLLSLFED | Saccharomyces cerevisiae | binding, competitive growth deep sequencing | peptide, cyclin D3-Cln2 fusion strain | concentration not given, RxL motif peptides | direction not given | growth enrichment score | -0.101 |
| SDSTVTKLDFDLEP | Saccharomyces cerevisiae | binding, competitive growth deep sequencing | peptide, cyclin E1-Cln2 fusion strain | concentration not given, tiling library, Cln2 subtracted | direction not given | growth enrichment score | 0.276 |

Repeated from above (series 2):
| Sequence | RBNS enrichment (R) |
| --- | --- |
| CUCAGUACUGUAUUUGCUCAGUGCAUCAGGAAUGGGUGUAUGGGUGUGUGUGGGUGGGUGUGAGUGUGGGUGUGUACGUACCAAUAAACAACCUGGUUUUAAGACAAUGU | 1.45 |
| UAAAAAAGAAAAAGAAAAAUACAUCAGGGAACCACUCCAUGGGGUAAAUGAUGACUACUGUUUGGGGUUUUGAGACCCCGCUGUGUAAAUGUGUGUCUUUCACAGGAGUG | 0.55 |
